Measurements gathered from unrelated publications.
rep main protease: Replicase polyprotein 1ab, main protease (rep, Severe acute respiratory syndrome coronavirus 2, UniProt P0DTD1)
Spike glycoprotein: Spike glycoprotein (Severe acute respiratory syndrome coronavirus 2, UniProt P0DTC2)
UniProt Q8JUX6, sequence (whole entry, looked up): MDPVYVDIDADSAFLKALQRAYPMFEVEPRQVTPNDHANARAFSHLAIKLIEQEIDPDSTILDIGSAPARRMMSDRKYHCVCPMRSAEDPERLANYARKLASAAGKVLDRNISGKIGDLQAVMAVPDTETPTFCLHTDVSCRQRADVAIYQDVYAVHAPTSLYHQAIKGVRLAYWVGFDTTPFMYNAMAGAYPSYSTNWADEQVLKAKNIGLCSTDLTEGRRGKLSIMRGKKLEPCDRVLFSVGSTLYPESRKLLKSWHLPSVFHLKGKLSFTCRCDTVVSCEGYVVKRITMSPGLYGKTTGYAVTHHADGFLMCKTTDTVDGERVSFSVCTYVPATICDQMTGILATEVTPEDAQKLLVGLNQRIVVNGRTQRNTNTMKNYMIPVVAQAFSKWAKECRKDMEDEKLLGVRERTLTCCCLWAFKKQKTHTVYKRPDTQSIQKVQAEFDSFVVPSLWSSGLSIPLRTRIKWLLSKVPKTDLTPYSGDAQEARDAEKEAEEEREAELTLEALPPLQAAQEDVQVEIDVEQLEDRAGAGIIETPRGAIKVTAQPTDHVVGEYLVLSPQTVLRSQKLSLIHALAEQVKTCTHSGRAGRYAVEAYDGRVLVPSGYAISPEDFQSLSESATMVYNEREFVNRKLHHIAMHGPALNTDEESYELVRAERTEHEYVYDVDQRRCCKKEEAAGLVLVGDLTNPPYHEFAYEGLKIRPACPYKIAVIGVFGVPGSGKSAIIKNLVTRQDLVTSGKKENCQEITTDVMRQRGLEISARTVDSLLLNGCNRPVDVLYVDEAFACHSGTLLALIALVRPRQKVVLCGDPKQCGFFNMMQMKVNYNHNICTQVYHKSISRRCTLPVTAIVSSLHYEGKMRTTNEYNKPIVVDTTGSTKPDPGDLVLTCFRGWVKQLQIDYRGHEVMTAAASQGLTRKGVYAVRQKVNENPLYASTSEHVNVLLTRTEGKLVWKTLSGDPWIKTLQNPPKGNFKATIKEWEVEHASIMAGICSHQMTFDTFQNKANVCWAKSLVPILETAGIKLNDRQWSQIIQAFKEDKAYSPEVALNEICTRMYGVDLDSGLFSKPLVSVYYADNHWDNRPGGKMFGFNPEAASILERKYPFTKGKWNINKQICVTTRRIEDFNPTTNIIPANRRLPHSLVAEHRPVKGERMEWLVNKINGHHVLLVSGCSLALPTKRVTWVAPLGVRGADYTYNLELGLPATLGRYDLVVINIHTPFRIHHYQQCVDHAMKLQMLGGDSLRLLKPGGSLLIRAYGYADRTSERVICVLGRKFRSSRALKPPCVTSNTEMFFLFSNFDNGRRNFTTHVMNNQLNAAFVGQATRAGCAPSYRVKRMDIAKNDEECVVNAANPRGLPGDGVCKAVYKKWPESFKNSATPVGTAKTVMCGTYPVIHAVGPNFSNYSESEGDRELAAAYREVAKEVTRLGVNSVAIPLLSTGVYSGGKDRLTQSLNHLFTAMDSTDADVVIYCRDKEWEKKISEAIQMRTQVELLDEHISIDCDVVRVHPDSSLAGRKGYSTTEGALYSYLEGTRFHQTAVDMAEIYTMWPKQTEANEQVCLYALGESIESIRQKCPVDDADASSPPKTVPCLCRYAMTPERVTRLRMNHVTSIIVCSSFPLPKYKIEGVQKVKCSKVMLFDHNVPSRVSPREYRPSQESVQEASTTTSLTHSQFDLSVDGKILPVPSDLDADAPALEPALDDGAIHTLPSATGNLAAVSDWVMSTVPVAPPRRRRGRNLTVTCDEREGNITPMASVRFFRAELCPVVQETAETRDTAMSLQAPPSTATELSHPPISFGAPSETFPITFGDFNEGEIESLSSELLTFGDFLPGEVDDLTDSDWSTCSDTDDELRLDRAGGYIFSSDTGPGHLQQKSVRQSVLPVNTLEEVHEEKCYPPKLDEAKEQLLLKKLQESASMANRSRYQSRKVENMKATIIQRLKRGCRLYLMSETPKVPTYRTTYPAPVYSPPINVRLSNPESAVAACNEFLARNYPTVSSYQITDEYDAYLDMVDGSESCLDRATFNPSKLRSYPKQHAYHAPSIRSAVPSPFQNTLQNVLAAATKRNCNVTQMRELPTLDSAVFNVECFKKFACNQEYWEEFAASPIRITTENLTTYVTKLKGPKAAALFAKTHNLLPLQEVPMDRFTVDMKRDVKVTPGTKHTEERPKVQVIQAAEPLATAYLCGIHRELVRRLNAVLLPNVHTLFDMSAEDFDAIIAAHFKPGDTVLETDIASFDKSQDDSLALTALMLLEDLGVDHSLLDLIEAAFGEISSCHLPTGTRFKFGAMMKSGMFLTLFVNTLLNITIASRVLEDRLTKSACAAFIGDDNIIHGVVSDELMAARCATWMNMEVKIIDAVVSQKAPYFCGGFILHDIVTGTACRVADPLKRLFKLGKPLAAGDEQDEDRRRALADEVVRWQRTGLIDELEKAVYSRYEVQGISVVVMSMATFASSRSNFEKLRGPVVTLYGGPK

O=C(NCC[C@H]1CCCN(C(=O)c2ccc(-c3cnc[nH]3)cc2)C1)c1ccc2n[nH]c(=O)n2c1 — inhibition (rep main protease; enzyme activity, inhibitor; 5 µM, run 2): 8.7%
c1cnc2c(c1)ccc1cccnc12 — inhibition (rep main protease; reporter gene (Gaussia luciferase), inhibitor; 20 µM): -3.62%
O=C(Cn1c(O)ccc1O)N[C@@H]1CCCCC12CCN(C(=O)c1cncc3[nH]cnc13)CC2 — inhibition (rep main protease; enzyme activity, inhibitor; 5 µM): 7.4%
O=c1cc(-c2ccccc2)c2ccc(O)c(O)c2o1 — kon (Spike glycoprotein; binding, biolayer interferometry): 1390 M⁻¹ s⁻¹
CC[C@H](C)[C@H](NC(=O)[C@H](CC(C)C)NC(=O)[C@H](Cc1c[nH]c2ccccc12)NC(=O)[C@H](CCC(N)=O)NC(=O)[C@@H](NC(=O)[C@H](Cc1ccccc1)NC(=O)[C@H](C)NC(=O)[C@H](CCCCNC(=O)COCCOCCNC(=O)COCCOCCNC(=O)CC[C@H](NC(=O)CCCCCCCCCCCCCCCCCCC(=O)O)C(=O)O)NC(=O)[C@H](CCC(N)=O)NC(=O)[C@H](C)NC(=O)[C@@H](NC(=O)[C@H](CCCCN)NC(=O)[C@H](CC(=O)O)NC(=O)[C@H](CC(C)C)NC(=O)C(C)(C)NC(=O)[C@@H](NC(=O)[C@H](CO)NC(=O)[C@H](Cc1ccc(O)cc1)NC(=O)[C@H](CC(=O)O)NC(=O)[C@H](CO)NC(=O)[C@@H](NC(=O)[C@H](Cc1ccccc1)NC(=O)[C@@H](NC(=O)CNC(=O)[C@H](CCC(=O)O)NC(=O)C(C)(C)NC(=O)[C@@H](N)Cc1ccc(O)cc1)[C@@H](C)O)[C@@H](C)O)[C@@H](C)CC)[C@@H](C)CC)C(C)C)C(=O)N[C@@H](C)C(=O)NCC(=O)NCC(=O)N1CCC[C@H]1C(=O)N[C@@H](CO)C(=O)N[C@@H](CO)C(=O)NCC(=O)N[C@@H](C)C(=O)N1CCC[C@H]1C(=O)N1CCC[C@H]1C(=O)N1CCC[C@H]1C(=O)N[C@@H](CO)C(N)=O — subjects ADA-positive at baseline (item: anti-drug antibodies; patients with type 2 diabetes; 5/5/10/15 mg escalating, baseline, evaluable subjects): 41.7%
Nc1ncnc2c([C@@H]3N[C@H](CO)[C@@H](O)[C@H]3O)c[nH]c12 — inhibition (Marburg virus; viral replication; HeLa, Musoke; 50 µM): 94%
N=C(N)c1ccc2cc(OC(=O)c3ccc(N=C(N)N)cc3)ccc2c1 — inhibition (rep main protease; reporter gene (Gaussia luciferase), inhibitor; 20 µM): 3.17%
Cc1nc(C(=O)N2CC[C@@H]([C@@H]3CCCN3C(=O)c3cc(O)c4ccoc4c3)C2)cc(=O)[nH]1 — inhibition (rep main protease; Mpro enzyme activity, inhibitor; 5 µM, high-throughput screen, single run): 11.8%
NC(=O)NC[C@H](N)C(=O)O — inhibition (rep main protease; reporter gene (Gaussia luciferase), inhibitor; 20 µM): 2.13%
C[C@@H]1Cc2c(Cl)cc(C(=O)N[C@@H](Cc3ccccc3)C(=O)O)c(O)c2C(=O)O1 — Km (porcine pancreatic lipase; substrate, HPLC fluorescence; pH 7.5, 37 °C, Km above tested range): 330 µM
CNC(=O)[C@@H](NC(=O)[C@H](CC(C)C)[C@H](O)C(=O)NO)C(C)(C)C — IC50 (Daboia russelii venom proteases; proteolytic activity, inhibitor; venom from MP, with: azocasein substrate): 1.5 µM
C[C@H]1CC[C@@]2(OC1)O[C@H]1C[C@H]3[C@@H]4CC[C@@H]5C[C@@H](O[C@@H]6O[C@H](CO)[C@H](O)[C@H](O)[C@H]6O[C@@H]6O[C@H](CO)[C@@H](O)[C@H](O)[C@H]6O)CC[C@]5(C)[C@H]4CC[C@]3(C)[C@H]1[C@@H]2C — koff (Spike glycoprotein; binding, BLI): 0.133 s⁻¹
Cn1cnc(Cn2c(=O)[nH]/c(=N\c3cc4cn(C)nc4cc3Cl)n(Cc3cc(F)c(F)cc3F)c2=O)n1 — patients with adverse event (human, mild renal impairment; oral, 375 mg, vessel puncture site haemorrhage TEAE, Mild severity): 12.5%
CC(C)=CCC[C@]1(C)C=Cc2c(O)c3c(c(CC=C(C)C)c2O1)O[C@]12C(=C[C@@H]4C[C@H]1C(C)(C)O[C@@]2(C/C=C(/C)C(=O)O)C4=O)C3=O — kon (Spike glycoprotein; binding, BLI): 165 M⁻¹ s⁻¹
CC[C@H](C)[C@H](NC(=O)[C@H](CC(N)=O)NC(=O)[C@H](CCC(=O)O)NC(=O)[C@H](C)NC(=O)[C@H](Cc1c[nH]cn1)NC(=O)[C@@H](NC(=O)[C@@H]1CCCN1C(=O)[C@H](CO)NC(=O)[C@@H]1CCCN1C(=O)[C@@H](NC(=O)[C@H](Cc1ccc(O)cc1)NC(=O)[C@@H](NC(=O)[C@H](CCCNC(=N)N)NC(=O)[C@H](CO)NC(=O)[C@@H](NC(=O)[C@H](Cc1c[nH]cn1)NC(C)=O)[C@@H](C)O)[C@@H](C)CC)[C@@H](C)CC)[C@@H](C)CC)C(N)=O — IC50 (Polyprotein P1234, nsP2 protease domain (Chikungunya virus, UniProt Q8JUX6); protease activity, inhibitor, FRET; 20 min, pH 7.5, 20 °C): ≤ 900 µM
C[C@@]1(c2cc(-c3cncnc3)c(F)cc2F)CCSC(N)=N1 — inhibition (rep main protease; reporter gene (mKate2), inhibitor; 20 µM): 0.102%
NC(=O)c1cc(C(=O)NC[C@H]2CN(C(=O)/C=C/c3cccnc3)Cc3ccccc32)c[nH]1 — inhibition (rep main protease; enzyme activity, inhibitor; 5 µM): 9.5%

Some of these lines once more:
Cc1nc(C(=O)N2CC[C@@H]([C@@H]3CCCN3C(=O)c3cc(O)c4ccoc4c3)C2)cc(=O)[nH]1 — inhibition (rep main protease; Mpro enzyme activity, inhibitor; 5 µM, high-throughput screen, single run): 11.8%
CNC(=O)[C@@H](NC(=O)[C@H](CC(C)C)[C@H](O)C(=O)NO)C(C)(C)C — IC50 (Daboia russelii venom proteases; proteolytic activity, inhibitor; venom from MP, with: azocasein substrate): 1.5 µM
